Published values collected from several papers.
Values joined by “and” are separate records of one study, mostly repeats; a detail may differ. ± marks the error that the study gave.

| SMILES | tested on | test | system | setting | scale | quantity | value |
| --- | --- | --- | --- | --- | --- | --- | --- |
| CCOP(=O)(OCC)ON1C(=O)c2cccc3cccc(c23)C1=O | carboxylesterase (rat) | enzyme activity, inhibitor | rat, postnatal day 12, rat liver homogenate | added: p-nitrophenyl valerate |  | IC50 | 5.3 nM |
| CC[C@H](C)[C@H](NC(=O)[C@H](C)NC(=O)[C@H](CCC(=O)O)NC(=O)[C@H](CCC(=O)O)NC(=O)[C@H](CC(C)C)NC(=O)[C@H](CCCCN)NC(=O)[C@H](CCCCN)NC(=O)[C@H](CCSC)NC(=O)[C@H](CCC(=O)O)NC(=O)[C@H](Cc1ccc(O)cc1)NC(=O)[C@H](CCC(=O)O)NC(=O)[C@H](CC(C)C)NC(=O)[C@H](CC(=O)O)NC(=O)[C@H](CC(C)C)NC(=O)[C@H](Cc1ccccc1)NC(=O)[C@@H](NC(=O)[C@@H](NC(=O)[C@H](CC(N)=O)NC(=O)[C@@H](NC(=O)[C@H](CCC(N)=O)NC(=O)[C@H](CC(=O)O)NC(=O)[C@H](CC(C)C)NC(=O)[C@@H](N)CO)[C@@H](C)CC)C(C)C)[C@@H](C)O)C(=O)N[C@@H](CCCCN)C(=O)N[C@@H](CCCCN)C(=O)N[C@@H](CC(C)C)C(=O)N[C@@H](CCC(=O)O)C(=O)N[C@@H](CCC(=O)O)C(=O)N[C@@H](C)C(=O)N[C@@H](Cc1ccc(O)cc1)C(=O)N[C@H](C(=O)N[C@@H](CC(=O)O)C(=O)N[C@@H](CC(C)C)C(=O)N[C@@H](CCCCN)C(=O)N[C@@H](CCC(=O)O)C(=O)N[C@@H](CC(C)C)C(=O)O)[C@@H](C)CC | SARS-CoV-2 Delta pseudovirus | pseudovirus infection, inhibitor, luciferase | Caco-2 | 24 h |  | IC50 | 440 nM |
| O=C(NC1CCN(c2ncnc3[nH]cnc23)CC1)c1cccc(NS(=O)(=O)c2ccc([N+](=O)[O-])cc2)c1 | SARS-CoV-2 |  | Wuhan-Hu-1 | 0.823 µM | baseline: untreated infected cells | relative infection | 57.7% |
| Cc1cc(C(=O)N[C@@H](Cc2cccc3ccccc23)C(=O)N[C@@H](CC(C)C)C(=O)N[C@H](C=O)C[C@@H]2CCCNC2=O)no1 | Norovirus | viral replication, RT-qPCR | HG23 replicon cells | four days |  | EC90 | 70 ± 20 nM |
| CS(=O)(=O)Cc1onc(-c2cccc(Cl)c2)c1-c1ccnc(N[C@@H]2CCN(C(=O)c3nccs3)C2)n1 | Plasmodium falciparum | parasite growth | 3D7 A10 | 72 h, asexual blood stage |  | EC50 | 5280 ± 400 nM |
| Cc1ccc(S(=O)(=O)Nc2cccc(C(=O)NC3CCN(c4ncnc5[nH]cnc45)CC3)c2)cc1Cl | SARS-CoV-2 |  | Wuhan-Hu-1 | 66.67 µM | baseline: untreated infected cells | relative infection | 20% |
| CC[C@H](C)[C@H](NC(=O)[C@H](C)NC(=O)[C@H](CCC(=O)O)NC(=O)[C@H](CCC(=O)O)NC(=O)[C@H](CC(C)C)NC(=O)[C@H](CCCCN)NC(=O)[C@H](CCCCN)NC(=O)[C@H](CCSC)NC(=O)[C@H](CCC(=O)O)NC(=O)[C@H](Cc1ccc(O)cc1)NC(=O)[C@H](CCC(=O)O)NC(=O)[C@H](CC(C)C)NC(=O)[C@H](CC(=O)O)NC(=O)[C@H](CC(C)C)NC(=O)[C@H](Cc1ccccc1)NC(=O)[C@H](Cc1ccccc1)NC(=O)[C@@H](NC(=O)[C@H](CC(N)=O)NC(=O)[C@@H](NC(=O)[C@H](CCC(N)=O)NC(=O)[C@H](CC(=O)O)NC(=O)[C@H](CC(C)C)NC(=O)[C@@H](N)CO)[C@@H](C)CC)C(C)C)C(=O)N[C@@H](CCCCN)C(=O)N[C@@H](CCCCN)C(=O)N[C@@H](CC(C)C)C(=O)N[C@@H](CCC(=O)O)C(=O)N[C@@H](CCC(=O)O)C(=O)N[C@H](C(=O)N[C@@H](Cc1ccc(O)cc1)C(=O)N[C@H](C(=O)N[C@@H](CC(=O)O)C(=O)N[C@@H](CC(C)C)C(=O)N[C@@H](CCCCN)C(=O)N[C@@H](CCC(=O)O)C(=O)N[C@@H](CC(C)C)C(=O)O)[C@@H](C)CC)[C@@H](C)O | SARS-CoV-2 Alpha pseudovirus | pseudovirus infection, inhibitor, luciferase | Caco-2 | 24 h, dual mutations |  | IC50 | 587 nM |
| NCc1ccc(-c2ncc(OCC3CCNCC3)nc2-c2ccc(-c3ccoc3)cc2)cc1 | Zika virus |  | ZIKV-FLR, C57BL/6 mice, interferon receptor knockout | 20 mg/kg/day, 3 days, mean survival |  | survival time | 13.7 days |
| COc1cccc2c1CCCC2CCCN1CCN(C2CCCCC2)CC1 (stereo not shown) | hippocampal neurons |  |  | concentration not given, added: RML PrPSc |  | dendritic spine density | 0.86 ± 0.03 spines/µm |
| O=C(NC1CCN(c2ncnc3[nH]cnc23)CC1)c1cccc(NS(=O)(=O)c2ccc(Cl)cc2)c1 | SARS-CoV-2 |  | Wuhan-Hu-1 | 0.09145 µM | baseline: untreated infected cells | relative infection | 71% |
| CC[C@H](C)[C@H](NC(=O)[C@H](C)NC(=O)[C@H](CCC(=O)O)NC(=O)[C@H](CCC(=O)O)NC(=O)[C@H](CC(C)C)NC(=O)[C@H](CCCCN)NC(=O)[C@H](CCCCN)NC(=O)[C@H](CCSC)NC(=O)[C@H](CCC(=O)O)NC(=O)[C@H](Cc1ccc(O)cc1)NC(=O)[C@H](CCC(=O)O)NC(=O)[C@H](CC(C)C)NC(=O)[C@H](CC(=O)O)NC(=O)[C@H](CC(C)C)NC(=O)[C@H](Cc1ccccc1)NC(=O)[C@H](Cc1ccc(O)cc1)NC(=O)[C@@H](NC(=O)[C@H](CC(N)=O)NC(=O)[C@@H](NC(=O)[C@H](CCC(N)=O)NC(=O)[C@H](CC(=O)O)NC(=O)[C@H](CC(C)C)NC(=O)[C@@H](N)CO)[C@@H](C)CC)C(C)C)C(=O)N[C@@H](CCCCN)C(=O)N[C@@H](CCCCN)C(=O)N[C@@H](CC(C)C)C(=O)N[C@@H](CCC(=O)O)C(=O)N[C@@H](CCC(=O)O)C(=O)N[C@H](C(=O)N[C@@H](Cc1ccc(O)cc1)C(=O)N[C@H](C(=O)N[C@@H](CC(=O)O)C(=O)N[C@@H](CC(C)C)C(=O)N[C@@H](CCCCN)C(=O)N[C@@H](CCC(=O)O)C(=O)N[C@@H](CC(C)C)C(=O)O)[C@@H](C)CC)[C@@H](C)O | SARS-CoV-2 JN.1 pseudovirus | pseudovirus infection, inhibitor, luciferase | Caco-2 | 24 h, dual mutations |  | IC50 | 71.4 nM |
| Nc1ccc([As]=O)cc1 (stereo not shown) | HCT-116 | cell viability, MTS |  |  |  | IC50 | 5030 ± 660 nM |
| CC[C@H](C)[C@H](NC(=O)[C@H](C)NC(=O)[C@H](CCC(=O)O)NC(=O)[C@H](CCC(=O)O)NC(=O)[C@H](CC(C)C)NC(=O)[C@H](CCCCN)NC(=O)[C@H](CCCCN)NC(=O)[C@H](CCSC)NC(=O)[C@H](CCC(=O)O)NC(=O)[C@H](Cc1ccc(O)cc1)NC(=O)[C@H](CCC(=O)O)NC(=O)[C@H](CC(C)C)NC(=O)[C@H](CC(=O)O)NC(=O)[C@H](CC(C)C)NC(=O)[C@H](Cc1ccccc1)NC(=O)[C@@H](NC(=O)[C@@H](NC(=O)[C@H](CC(N)=O)NC(=O)[C@@H](NC(=O)[C@H](CCC(N)=O)NC(=O)[C@H](CC(=O)O)NC(=O)[C@H](CC(C)C)NC(=O)[C@H](CO)NC(=O)[C@H](CC(C)C)NC(=O)[C@H](CC(=O)O)NC(=O)[C@@H]1CCCN1C(=O)[C@H](C)N)[C@@H](C)CC)C(C)C)[C@@H](C)O)C(=O)N[C@@H](CCCCN)C(=O)N[C@@H](CCCCN)C(=O)N[C@@H](CC(C)C)C(=O)N[C@@H](CCC(=O)O)C(=O)N[C@@H](CCC(=O)O)C(=O)N[C@@H](CO)C(=O)N[C@@H](Cc1ccc(O)cc1)C(=O)N[C@H](C(=O)N[C@@H](CC(=O)O)C(=O)N[C@@H](CC(C)C)C(=O)N[C@@H](CCCCN)C(=O)N[C@@H](CCC(=O)O)C(=O)N[C@@H](CC(C)C)C(=O)O)[C@@H](C)CC | SARS-CoV-2 JN.1 pseudovirus | pseudovirus infection, inhibitor, luciferase | Caco-2 | 24 h |  | IC50 | 118 nM |
| Cc1ccc(S(=O)(=O)Nc2cccc(C(=O)NC3CCN(c4ncnc5[nH]cnc45)CC3)c2)cc1 | monkeypox virus E1/E12 |  |  | 200 µM |  | inhibition | 16.6% and 25.7% |
| CC[C@H](C)[C@H](NC(=O)[C@H](C)NC(=O)[C@H](CCC(=O)O)NC(=O)[C@H](CCC(=O)O)NC(=O)[C@H](CC(C)C)NC(=O)[C@H](CCCCN)NC(=O)[C@H](CCCCN)NC(=O)[C@H](CCSC)NC(=O)[C@H](CCC(=O)O)NC(=O)[C@H](Cc1ccc(O)cc1)NC(=O)[C@H](CCC(=O)O)NC(=O)[C@H](CC(C)C)NC(=O)[C@H](CC(=O)O)NC(=O)[C@H](CC(C)C)NC(=O)[C@H](Cc1ccccc1)NC(=O)[C@@H](NC(=O)[C@@H](NC(=O)[C@H](CC(N)=O)NC(=O)[C@@H](NC(=O)[C@H](CCC(N)=O)NC(=O)[C@H](CC(=O)O)NC(=O)[C@H](CC(C)C)NC(=O)[C@@H](N)CO)[C@@H](C)CC)C(C)C)[C@@H](C)O)C(=O)N[C@@H](CCCCN)C(=O)N[C@@H](CCCCN)C(=O)N[C@@H](CC(C)C)C(=O)N[C@@H](CCC(=O)O)C(=O)N[C@@H](CCC(=O)O)C(=O)N[C@H](C(=O)N[C@@H](Cc1ccc(O)cc1)C(=O)N[C@H](C(=O)N[C@@H](CC(=O)O)C(=O)N[C@@H](CC(C)C)C(=O)N[C@@H](CCCCN)C(=O)N[C@@H](CCC(=O)O)C(=O)N[C@@H](CC(C)C)C(=O)O)[C@@H](C)CC)[C@@H](C)O | SARS-CoV-2 Gamma pseudovirus | pseudovirus infection, inhibitor, luciferase | Caco-2 | 24 h |  | IC50 | 1530 nM |
| CC(C)[C@H]1CC[C@@H](N2CCC3(CC2)C(=O)NCN3c2ccccc2)CC1 |  | twitch contraction, electrical stimulation | NOP(+/+) mice, mouse vas deferens |  |  | Emax | 98 ± 2 % inhibition |

Some of these lines once more:
| SMILES | tested on | test | system | setting | scale | quantity | value |
| --- | --- | --- | --- | --- | --- | --- | --- |
| O=C(NC1CCN(c2ncnc3[nH]cnc23)CC1)c1cccc(NS(=O)(=O)c2ccc([N+](=O)[O-])cc2)c1 | SARS-CoV-2 |  | Wuhan-Hu-1 | 0.823 µM | baseline: untreated infected cells | relative infection | 57.7% |
| Cc1cc(C(=O)N[C@@H](Cc2cccc3ccccc23)C(=O)N[C@@H](CC(C)C)C(=O)N[C@H](C=O)C[C@@H]2CCCNC2=O)no1 | Norovirus | viral replication, RT-qPCR | HG23 replicon cells | four days |  | EC90 | 70 ± 20 nM |
